Measurements collected from several papers.
A part holds a random share of what one study measured. Changes are numbered by the printed parent chain.

Sample 1
Target: ABI1, truncated, D143A, DHFR fusion (Arabidopsis thaliana)
Technique: DHFR PCA, deep sequencing
Sample: yeast
Notes: methotrexate growth selection, single substitutions
With: (+)-ABA 58 µM
Reference: wild-type fitted maximum
Reading: higher = stronger binding
Starting sequence: PYL1, truncated, DHFR fusion (Arabidopsis thaliana); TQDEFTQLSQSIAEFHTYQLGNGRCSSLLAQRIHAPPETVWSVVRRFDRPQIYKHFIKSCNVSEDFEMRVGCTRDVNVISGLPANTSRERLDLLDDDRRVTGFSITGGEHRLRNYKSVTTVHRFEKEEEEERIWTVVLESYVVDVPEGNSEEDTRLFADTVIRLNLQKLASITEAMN; partner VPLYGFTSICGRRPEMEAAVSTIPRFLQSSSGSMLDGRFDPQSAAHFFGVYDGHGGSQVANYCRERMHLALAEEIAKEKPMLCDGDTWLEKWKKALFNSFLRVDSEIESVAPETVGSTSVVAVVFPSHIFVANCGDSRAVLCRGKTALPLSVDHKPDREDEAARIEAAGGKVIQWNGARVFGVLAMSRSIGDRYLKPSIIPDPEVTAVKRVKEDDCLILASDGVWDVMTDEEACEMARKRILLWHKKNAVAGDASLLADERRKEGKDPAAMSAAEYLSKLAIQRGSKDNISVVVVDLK
| Variant | relative binding score |
| --- | --- |
| H34W | 74.9% |
| I79N | 64.5% |
| L28A | 36.5% |
| E130R | 92.1% |
| D96A | 24.9% |
| T6E | 102% |
| D96N | 70.3% |
| E174I | 55.7% |
| E64H | 89.9% |
| I172W | 50.3% |
| T6P | 100% |
| I133T | 95.5% |

Sample 2
Target: Fragile X messenger ribonucleoprotein 1, C-terminal low-complexity region (Fmr1, Mus musculus, UniProt P35922)
Technique: RNA Bind-n-Seq
Molecule type: RNA
Sample: in vitro
Tested at: 200 nM
Notes: whole 134-nt RNA, ends assumed
With: 150 mM LiCl
Reference: input library
Reading: higher = stronger binding
Library: 7-deaza-guanosine replaces G
| Oligonucleotide | log2 enrichment |
| --- | --- |
| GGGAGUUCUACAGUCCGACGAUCUGGGAGGUGGAUUUUGUUUAUUUUUUUAGCUCAUUUCCAGGGGUGGGAAUUUUUUUUUAAUAUGUGUCAUGACUAAAGUUGUUUUUGAAAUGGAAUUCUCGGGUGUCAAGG | 0.255 |
| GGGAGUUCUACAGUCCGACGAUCCACAGACAACACGCACCCACACAGACACAGAGGGAAGGGGUUGGGAUGGGGACAGGGUGCACAGCAGGGCGGGGUAAAACCCCAGCCCCUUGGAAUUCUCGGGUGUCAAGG | 1.79 |
| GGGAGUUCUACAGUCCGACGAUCACCAUGCAGGUGGGCAUCUUUGGGAAGUGGGGCAAGGGGGGGAUAGGGAGGGGGGUAACACUUUGGGAACAGGUGGUCCCAAGUCGUUUCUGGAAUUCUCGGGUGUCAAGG | 1.01 |
| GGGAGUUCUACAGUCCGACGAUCGCAGGAAGUAAAAACAAAUGGAAAUGCUUCGGAUAGUGGCAGGGGUGGGGGUUGCUAAAAAAAGGGUGGGAUGGGAGUGGGUAAAGAGUUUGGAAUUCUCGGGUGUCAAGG | 1.59 |
| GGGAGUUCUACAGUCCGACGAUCAUUUUUUGUAUCAAGUCCCUGAAUGGAAGUAUGACGUUGGGUCCCUCUGAAGUUUAAUUCUGAGUUCUCAUUAAAAGAAAUUUGCUUUCAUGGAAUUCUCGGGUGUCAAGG | -2.39 |
| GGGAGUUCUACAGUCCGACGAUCAGUCCUGUGCUACACAUCGUAUGUACCGAAUCGGGCCCCCGGGGCCCCCGGCCCCCGGAAAGUAUUAUGUUACGCCGUUCGGAUCUGCACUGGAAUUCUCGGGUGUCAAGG | -1.84 |
| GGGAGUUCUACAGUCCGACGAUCCACAGACAACACGCACCCACACAGACACAGAGGGAAGGGGUUGGAAUGGGGACAGGGUGCACAGCAGGGCGGGGUAGGACCCCAGCCCCUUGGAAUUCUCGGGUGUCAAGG | -0.655 |
| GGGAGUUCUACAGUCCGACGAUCCACAGACAACACGCACCCACACAGACACAGAGGGAAGGAGUUGGGAUGGGGACAGGGUGCACAGCAGGGCGGGGUAGGACCCCAGCCCCUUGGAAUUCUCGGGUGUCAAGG | -0.708 |
| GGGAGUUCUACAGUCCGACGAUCUUCCUCAAGUCCUGUGCUACACAUCGUAUGUACCGAAUCGGGCGGCGGCGGAAAGUAUUAUGUUACGCCGUUCGGAUCUGCACUUCCAGCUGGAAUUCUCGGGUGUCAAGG | 0.801 |
| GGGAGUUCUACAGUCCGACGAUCUAACUUUAGAGGAGGAACUGAUGGAUAUGGCAGUGGACGUGGAUUUGGGGAUGGCUAUAAUGGGUAUGGAGGAGGACCUGGAGGUGGCAAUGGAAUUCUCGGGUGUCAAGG | 0.213 |
| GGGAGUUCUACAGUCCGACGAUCCACAGACAACACGCACCCACACAGACACAGAGGGAAGGGAUUGGGAUGGGGACAGGGUGCACAGCAGGGCGGGGUAGGACCCCAGCCCCUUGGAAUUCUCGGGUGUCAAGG | -0.652 |

Sample 3
Target: CCNE1, cyclin fold, Cln2 fusion (human)
Technique: yeast growth competition, sequencing
Sample: yeast
Notes: strong parent motif
Reference: not given
Reading: higher = stronger binding
Starting sequence: PPP1R3F docking peptide (human); VAPRRVLFADEAL
| Variant | normalised enrichment score |
| --- | --- |
| VAPRRVLLADEAL [F8L] | 0.413 |
| VAPRAVLFADEAL [R5A] | 0.585 |
| VAPRRVLFADAAL [E11A] | 2.25 |
| VAPRRVAFADEAL [L7A] | 0.526 |
| VAPRRALFADEAL [V6A] | 0.656 |
| VAPRRVLFADEAA [L13A] | 2.74 |

Sample 4
Target: JDP2, bZIP domain (human)
Technique: DHFR protein complementation
Sample: yeast
Notes: single substitutions, most at no-binding floor
Reference: wild-type JUN-FOS pair
Reading: higher = stronger binding
Starting sequence: JUN, bZIP domain (human); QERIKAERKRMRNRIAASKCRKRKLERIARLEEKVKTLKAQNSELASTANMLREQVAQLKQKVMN; partner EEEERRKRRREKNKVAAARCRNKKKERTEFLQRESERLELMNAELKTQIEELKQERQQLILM
| Variant | binding fitness [natural log] |
| --- | --- |
| E32N | 0.182 |
| T48G | 0.0213 |
| V56F | -0.471 |
| L38V | 0.0473 |
| E32S | 0.252 |
| A29E | 0.122 |
| K36I | 0.26 |
| R30Q | 0.291 |
| R53C | 0.194 |
| T48L | 0.224 |
| A29Y | 0.22 |
| M51R | 0.306 |

Sample 5
Target: RNA binding protein fox-1 homolog 2, RRM domain, GST-SBP tag (RBFOX2, Homo sapiens, UniProt O43251-10, residues 100-194)
Technique: RNA Bind-n-Seq
Molecule type: RNA
Sample: in vitro
Tested at: 365 nM
Notes: natural RNA segment, single round, ends assumed
Reference: no-protein control
Reading: higher = stronger binding
Residues (chain): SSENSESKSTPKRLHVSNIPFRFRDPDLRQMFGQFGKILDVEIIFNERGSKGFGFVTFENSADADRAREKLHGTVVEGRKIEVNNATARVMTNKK
| Oligonucleotide | RBNS enrichment (R) |
| --- | --- |
| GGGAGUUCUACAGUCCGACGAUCAUAUUAUACCUUAAGGAUUCCUACCAGGUUUUCUUGAAAAGUGGCUUUUACAUGAGGCAAGAAGGAAGUAGUUGUAGAUAGAAUCAUUUUCUAGUUCUUUAAAUGAGACAUGGAAUUCUCGGGUGCCAA | 0.478 |
| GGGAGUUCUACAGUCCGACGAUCGGUAAUAAAUAGGUUACUUACCAUCAUAUGUUCAUAUAGAUGAAACUAAUUUUUGGCUUAAGUCAGAACAACUGGCCAAAAUUGAAGUCAUAUUUGAGGGGGGAAAUGGCUGGAAUUCUCGGGUGCCAA | 0.637 |
| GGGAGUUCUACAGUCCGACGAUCUCCCCAAGGAAGCCAUAAUGUGCAGAUGAACUGACCGAAGGAAAAGCUUGAGACAGCUUCCUGCGGGGGAGCCAGGUACAGAAGAGGCAGCUUGGGCUGACCCAGCAUCUUGGAAUUCUCGGGUGCCAA | 0.686 |
| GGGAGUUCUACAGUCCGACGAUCAGAGCAGUGGUUAAGACAGACUUUGGGAUCAAAUCACCCUAGGUGCGGGCAGGUUUCUAGGCUGCUCUAAGCUUCUACCUUGAAGGCAGUUGGGUCUGAUAAUAGUACCUUGGAAUUCUCGGGUGCCAA | 0.321 |
| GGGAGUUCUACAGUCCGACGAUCCUGAGGUAUGUUUAAUCUAGGCAGGUACGUUUAAGGAUAUUUUGAUCUAUUUAUAAUGAAUUCACAAUUUAUGCCUAUAAAUUUCAGAUGAUUUAAAAUUUUAAACCUGUUGGAAUUCUCGGGUGCCAA | 0.525 |
| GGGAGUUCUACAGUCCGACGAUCAGCAGGAUACAGGGCGAGGGAUGUGGCAGGUGAGGGGGCUCCCGCCUGUGCCCCUUCUCCUCACCAUGUCUCCCCCACCCUGCCUCAGUUCUCCGUUCCCCUUCAUCUCCUGGAAUUCUCGGGUGCCAA | 0.779 |
| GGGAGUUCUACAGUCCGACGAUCCUUCCAUGACCUUGGAGGUAUAUCCCAAGCUCUCAUUGGCAGAUGAGGCAAGAGAUAAGGGCAGGAUAUAGCACAUGAUGGCUUCCAGCAGAACUGAGUCUAUAGCCCAGUGGAAUUCUCGGGUGCCAA | 0.478 |
| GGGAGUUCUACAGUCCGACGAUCUAAAUAGAAAGUUAGCUGUUCCGCAGACAGGCGUAGUCUUGAGUGUCCUGUGUGGUCAGUGGCAGUGCUAUUCUGAGCUCUGUAGAUGCUUACAAUGUCAGUAUUUGGGAUGGAAUUCUCGGGUGCCAA | 2 |
| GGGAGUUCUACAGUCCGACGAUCAAGUGCCUUAAUAGUAGGGUAAGUUGUUAAGAGUGGGGGAGAGCAGGCUGGCAGCUCUCCAGUCAGGAGGCAUAGUUUUUACUGAACAAUCAAAGCACUUGGACUCUUGCUGGAAUUCUCGGGUGCCAA | 0.659 |
| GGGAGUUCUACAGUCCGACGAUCAAAUUCACAUGCAGGAUUUACUUUAUACUGUAGAAUACUGACUUUCAUGAUGACAACUUGAUUUAUGCAUGAAUAUCAACAGUAUUUCCAUAUAGUAAAAUAACAUUUCUUGGAAUUCUCGGGUGCCAA | 2.66 |
| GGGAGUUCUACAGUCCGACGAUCACAACCCGGCCUACAUGGAUGCCCCGAAGGCGGCCCUCUGAGCAUUCCCUGGCCUCUCUGGCUGCCACUUGGUUAUGUUGUGUGUGUGCGUGAGUGGUGUGCAGGCGCGGUGGAAUUCUCGGGUGCCAA | 0.849 |
| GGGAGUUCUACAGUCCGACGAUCGAGAAUGUAUGGAAAUGCAUGUAUGUCCAGGCAGAAGUUUGCUACAGGAGUGAGGCCCUCAUGGAGAACCUCUGUUAAGGCAAUGUGGAAGGGGAAGCCCCCACACAGAGUGGAAUUCUCGGGUGCCAA | 12.1 |

Excerpt of the above (sample 3):
| Variant | normalised enrichment score |
| --- | --- |
| VAPRRVLFADAAL [E11A] | 2.25 |
| VAPRRVAFADEAL [L7A] | 0.526 |
| VAPRRALFADEAL [V6A] | 0.656 |
